Measured values of several laboratories.
Numbered parts are unrelated; each lists some results of a single study. Substitutions count along the parent as printed.

Set 1 — target: CCNA2, cyclin fold, Cln2 fusion (human); technique: yeast growth competition, sequencing; sample: yeast; notes: strong parent motif; reference: not given; reading: higher = stronger binding
Starting sequence: WEE1 docking peptide (human); HKTFRKLRLFDTP
Change	normalised enrichment score
HDTFRKLRLFDTP [K2D]	0.712
HKTNRKLRLFDTP [F4N]	1.83
SKTFRKLRLFDTP [H1S]	2.39
HKTFRKLRLFVTP [D11V]	1.13
HKTFRKLRLFDPP [T12P]	1.36
HKTFRKLRLFDTN [P13N]	2.19
HKTFRKLRLFLTP [D11L]	1.98
HMTFRKLRLFDTP [K2M]	1.33
HNTFRKLRLFDTP [K2N]	1.78
HKTFRKGRLFDTP [L7G]	2.2
HKTFRKLRLFDEP [T12E]	1.66
HKTFRKLRTFDTP [L9T]	0.113
HKTERKLRLFDTP [F4E]	0.741
HKTFRKLRLFYTP [D11Y]	0.637
HKTFRKLRKFDTP [L9K]	1.5
GKTFRKLRLFDTP [H1G]	0.888
HKTFRKLRLFDAP [T12A]	1.39
HKGFRKLRLFDTP [T3G]	2.73
HKTFRPLRLFDTP [K6P]	2.98
HTTFRKLRLFDTP [K2T]	1.82
HKTFRKLRLFKTP [D11K]	1.62
HKTFRKLRLFDTF [P13F]	0.873
HKTMRKLRLFDTP [F4M]	2.04
HKTFRKLRLPDTP [F10P]	1.51
HKTIRKLRLFDTP [F4I]	1.85

Set 2 — target: CREM, bZIP domain (human); technique: DHFR protein complementation; sample: yeast; reference: wild-type JUN-FOS pair; reading: higher = stronger binding
Notes: single substitutions, most at no-binding floor
Starting sequence: JUN, bZIP domain (human); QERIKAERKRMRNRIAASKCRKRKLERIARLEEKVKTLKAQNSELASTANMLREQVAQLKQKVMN; partner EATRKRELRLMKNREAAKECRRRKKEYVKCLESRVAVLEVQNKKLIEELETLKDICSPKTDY
Change	binding fitness [natural log]
S43K	-1.41
R53K	-1.26
L52K	-1.5
L45M	-1.49
R30Q	-1.45
I28Q	-1.29
A46R	-1.4
E54L	-1.5
S47C	-1.49
K39S	-1.39
K39A	-1.31
T37S	-1.5
T48G	-1.51
L31Y	-1.54
T48M	-1.36
L38S	-1.45
R30K	-1.5
L31E	-1.61
K36E	-1.35
L52S	-1.52

Set 3 — technique: RNA Bind-n-Seq; molecule type: RNA; sample: in vitro; tested at: 200 nM; notes: whole 134-nt RNA, ends assumed; added: 150 mM KCl; reference: input library; reading: higher = stronger binding
Target: Ras GTPase-activating protein-binding protein 1, full length (G3BP1, Homo sapiens, UniProt Q13283)
UniProt Q13283, sequence (whole entry, looked up): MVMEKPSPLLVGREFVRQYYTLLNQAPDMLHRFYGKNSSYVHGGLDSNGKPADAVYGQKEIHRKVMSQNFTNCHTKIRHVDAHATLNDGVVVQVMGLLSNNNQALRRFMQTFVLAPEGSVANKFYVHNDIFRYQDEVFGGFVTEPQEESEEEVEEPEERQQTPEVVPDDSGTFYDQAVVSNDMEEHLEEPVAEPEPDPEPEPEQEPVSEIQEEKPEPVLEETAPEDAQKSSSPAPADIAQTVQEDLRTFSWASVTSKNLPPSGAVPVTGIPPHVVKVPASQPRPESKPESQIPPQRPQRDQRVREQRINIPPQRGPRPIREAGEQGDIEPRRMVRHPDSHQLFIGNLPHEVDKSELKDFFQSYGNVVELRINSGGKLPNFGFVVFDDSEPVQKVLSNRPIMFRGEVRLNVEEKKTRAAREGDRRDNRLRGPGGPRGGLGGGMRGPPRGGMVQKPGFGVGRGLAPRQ
Shared flanks, not repeated: GGGAGUUCUACAGUCCGACGAUC … UGGAAUUCUCGGGUGUCAAGG
Strand	log2 enrichment
UGGCCCUGGUGGCAUGCGGGGUGGAAGAGGUGGCCUCAUGGAUCGUGGUGGUCCCGGUGGAAUGUUCAGAGGUGGCCGUGGUGGAGACAG	0.0824
CAAGUCCUGUGCUACACAUCGUAUGUACCGAAUCGGGGCCGGGGCCGGGCCGGGGAAAGUAUUAUGUUACGCCGUUCGGAUCUGCACUUC	-0.00552
CUGUGCUACACAUCGUAUGUACCGAAUCAAAUUUUUUUAAAUUUUUUUAAACCCCCCCAAAAAAGUAUUAUGUUACGCCGUUCGGAUCUG	-0.207
UCUAUUCAUAAGAACCCCAACACAUCGGAGCCCCAACACCUGUUGGUGAUGAAGGGCGCCCCAGAAAGGAUCCUAGACCGUUGCAGCUCU	-0.21
UCAAGUCCUGUGCUACACAUCGUAUGUACCGAAUCGGGGAAGGAAGGGGAAGGGAAAGUAUUAUGUUACGCCGUUCGGAUCUGCACUUCC	0.882
UCCUGUGCUACACAUCGUAUGUACCGAAUCGGUUUUUUGGGUUUUUUGGGGUUUUUUGGAAAGUAUUAUGUUACGCCGUUCGGAUCUGCA	-0.525
UAACUUUAGAGGAGGAUCUGAUGGAUAUGGCAGUGGACGUGGAUUUGGGGAUGGCUAUAAUGUGUAUGGAGGAGGACCUGGAGGUGGCAA	0.229
UGGGAGGUGGAUUUUGUUUAUUUUUUUAGCUCAUUUCCAGCGGUGGGAAUUUUUUUUUAAUAUGUGUCAUGAAUAAAGUUGUUUUUGAAA	-0.0529
AGUCCUGUGCUACACAUCGUAUGUACCGAAUCGGGGAGGGGAAAAAAAGGGGUGGGGAAAGUAUUAUGUUACGCCGUUCGGAUCUGCACU	0.72

Other studies, line by line
Molecule	target	assay	test system	setting	scale	measurement	value
PhoQ, residues 284 288 289 292 302 303 TASMAF	PhoP, residues 12 14 15 18 19 SGWQI (Escherichia coli, UniProt P23836)	Sort-seq, measured: YFP reporter	E. coli	PhoQ-PhoP variant library, added: 10 µM Mg2+	reference: high Mg2+ state, higher = stronger signaling	fold induction	9.64
